Measured values from different studies.
Each numbered part is a random draw from the data of one study; scales do not carry over between parts. Positions count from the first letter of the parent shown.

Study 1
Target: Histone acetyltransferase KAT6A, winged helix 2, GST fusion (KAT6A, Homo sapiens, UniProt Q92794, residues 85-181)
Method: protein binding microarray
Form: double-stranded DNA, one strand shown
Medium: in vitro
Tested at: not given
Notes: 8-mer, flanks averaged, mean of 2 arrays, mostly near background
Reference: not given
Reading: higher = stronger binding
Construct (chain): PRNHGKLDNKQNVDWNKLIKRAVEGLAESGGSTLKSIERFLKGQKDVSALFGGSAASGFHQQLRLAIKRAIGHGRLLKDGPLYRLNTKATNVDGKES
Sequence | E-score
AAGCTGAT | 0.0665
ACTTTTAA | 0.00219
CACCATCG | -0.0944
CGCCCGGC | 0.283
CGCCCGTA | -0.0421
AATGAGCA | 0.0773
AATCATTC | 0.0299
AGATCTCC | -0.0359
ACGGGCTC | -0.0567
CAAATCTA | -0.0745
CCACTTAA | 0.0773
TGAGCGAA | 0.116
ATTCCTTC | 0.0875
ATCTGTCA | -0.0529
ACCTCCCG | 0.0227
ACAAAAAG | 0.132
CCTCACGC | 0.135
CTGGTTGC | 0.11
ATCGTAAA | -0.0254
ACTAAGAC | 0.0296
CGGGCAAA | 0.158
ATAAGCGA | 0.0614
CAGAGCGG | 0.029
ACCGGCAC | 0.164
TGAAATCA | 0.12

Study 2
Target: Ras GTPase-activating protein-binding protein 1, full length (G3BP1, Homo sapiens, UniProt Q13283)
Chain of UniProt Q13283 (whole entry, looked up): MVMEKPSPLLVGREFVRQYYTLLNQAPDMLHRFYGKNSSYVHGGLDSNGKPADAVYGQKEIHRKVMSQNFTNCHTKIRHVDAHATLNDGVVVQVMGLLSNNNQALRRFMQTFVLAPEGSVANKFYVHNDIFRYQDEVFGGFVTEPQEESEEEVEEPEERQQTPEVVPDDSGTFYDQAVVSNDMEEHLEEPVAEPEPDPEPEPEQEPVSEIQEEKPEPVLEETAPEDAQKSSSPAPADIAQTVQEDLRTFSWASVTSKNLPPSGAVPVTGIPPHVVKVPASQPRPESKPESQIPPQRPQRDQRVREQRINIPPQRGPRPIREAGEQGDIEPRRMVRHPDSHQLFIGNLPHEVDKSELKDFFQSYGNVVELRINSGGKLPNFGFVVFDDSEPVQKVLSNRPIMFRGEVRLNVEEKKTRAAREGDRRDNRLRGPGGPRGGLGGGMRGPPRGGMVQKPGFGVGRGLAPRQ
Method: RNA Bind-n-Seq
Form: RNA
Medium: in vitro
Tested at: 200 nM
Notes: whole 134-nt RNA, ends assumed
Together with: 150 mM LiCl
Reference: input library
Reading: higher = stronger binding
Each molecule: 7-deaza-guanosine replaces G
Sequence | log2 enrichment
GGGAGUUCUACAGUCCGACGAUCUGUGCUACACAUCGUAUGUACCGAAUCGGGCCCCCCCGGGGCCCCCCCGGGGCCCCCCCGGGAAAGUAUUAUGUUACGCCGUUCGGAUCUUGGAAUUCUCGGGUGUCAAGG | -1.12
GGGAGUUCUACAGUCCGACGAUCUCCUGUGCUACACAUCGUAUGUACCGAAUCGGGUUUUUGGGAAAAAGGGUUUUUUUGGGAAAGUAUUAUGUUACGCCGUUCGGAUCUGCAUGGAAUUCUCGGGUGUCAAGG | -1.45
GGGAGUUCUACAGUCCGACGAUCAGUCCUGUGCUACACAUCGUAUGUACCGAAUCGGGAAAGGGUUUUUGGGAAAAAGGGAAAGUAUUAUGUUACGCCGUUCGGAUCUGCACUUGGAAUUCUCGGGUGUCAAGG | -1.11
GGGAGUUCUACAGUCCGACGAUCUUUUGAGGAAAGGAUGAAGGAGCUCAGAGAAGAGGUAAGGGUCUCCUAUCCUUCCCCUCUCCCCCAGAUUUGAGUUUUAUGUUAUGAAUCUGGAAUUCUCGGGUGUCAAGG | -0.438
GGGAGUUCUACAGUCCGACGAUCCCUCAAGUCCUGUGCUACACAUCGUAUGUACCGAAUCGGGGCGGCGGGCGGGAAAGUAUUAUGUUACGCCGUUCGGAUCUGCACUUCCAGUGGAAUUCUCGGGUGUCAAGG | -0.526
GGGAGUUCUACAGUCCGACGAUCUCAAGUCCUGUGCUACACAUCGUAUGUACCGAAUCGGGUGGGUUUUUGGGAGGGAAAGUAUUAUGUUACGCCGUUCGGAUCUGCACUUCCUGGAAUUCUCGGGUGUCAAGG | 0.411
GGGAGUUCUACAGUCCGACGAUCUCCUGUGCUACACAUCGUAUGUACCGAAUCGGGGUUUUUGGGGUUUUUGGGUUUUUGGGGAAAGUAUUAUGUUACGCCGUUCGGAUCUGCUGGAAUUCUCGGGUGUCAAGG | 0.0656
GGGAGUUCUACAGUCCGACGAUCCUCAAGUCCUGUGCUACACAUCGUAUGUACCGAAUCGGGCCGGCCGGGGCCGGGAAAGUAUUAUGUUACGCCGUUCGGAUCUGCACUUCCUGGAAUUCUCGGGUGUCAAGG | 0.646
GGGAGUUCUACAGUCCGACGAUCUCAAGUCCUGUGCUACACAUCGUAUGUACCGAAUCGGGGAAGGGAAGGAAGGGGAAAGUAUUAUGUUACGCCGUUCGGAUCUGCACUUCCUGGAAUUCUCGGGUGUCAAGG | -0.154
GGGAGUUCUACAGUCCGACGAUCAAGUCCUGUGCUACACAUCGUAUGUACCGAAUCGGAAAAGGGGAAAAGGAAAAGGGGAAAGUAUUAUGUUACGCCGUUCGGAUCUGCACUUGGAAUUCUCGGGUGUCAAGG | 0.448
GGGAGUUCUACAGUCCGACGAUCCCUCAAGUCCUGUGCUACACAUCGUAUGUACCGAAUCGGUGGAAAAAGGAGGAAAGUAUUAUGUUACGCCGUUCGGAUCUGCACUUCCAGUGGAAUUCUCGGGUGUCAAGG | 0.209

Study 3
Target: CCND1, cyclin fold, Cln2 fusion (human)
Method: yeast growth competition, sequencing
Medium: yeast
Notes: weak parent motif
Reference: not given
Reading: higher = stronger binding
Starting sequence: SAMHD1 docking peptide (human); ASKSRVQLFKDDP
Change | normalised enrichment score
V6F | 0.0976
R5H | 0.509
Q7I | 0.175
D12W | 0.06
L8W | -0.0432
K10L | 0.81
K3R | 0.523
K10D | 0.44
D11L | -0.0753
F9M | 0.505
V6Y | 0.267
S2C | 0.527
D12A | 0.363
R5A | 0.823
K3H | 0.838
K10F | 0.502
F9A | -0.0864
F9P | 0.139
K3N | 0.565
K10H | 0.342
V6H | 0.203
V6E | 0.334
L8K | 0.233
D12R | 0.0891
S4A | 1.44

Study 4
Target: Prothrombin, mature alpha-thrombin (F2, Homo sapiens, UniProt P00734)
Method: aptamer microarray, sandwich
Form: DNA with 2'F-ANA
Medium: in vitro
Tested at: 200 nM
Notes: whole 15-mer aptamer, many near background
Together with: Cy3 exosite-II aptamer, 400 nM
Reading: higher = stronger binding
Sequence: GGTTGGTGTGGTTGG
Modification | mean fluorescence intensity [a.u.]
2'F-ANA at 3 4 5 10 11 13 14 | 48.8
2'F-ANA at 1 2 6 8 11 12 13 14 15 | 69
2'F-ANA at 2 6 7 8 10 11 14 15 | 80.5
2'F-ANA at 1 2 6 12 13 | 228
2'F-ANA at 1 2 7 9 10 11 13 14 | 45.9
2'F-ANA at 1 2 4 6 8 11 12 13 15 | 172
2'F-ANA at 2 5 6 7 9 10 11 14 | 60.4
2'F-ANA at 4 6 8 14 | 91.5
2'F-ANA at 1 2 3 5 7 8 12 13 | 110
2'F-ANA at 1 5 10 13 | 46.5
2'F-ANA at 2 3 5 6 7 9 12 13 14 15 | 53.5
2'F-ANA at 1 2 5 6 7 8 9 10 12 | 48.1
2'F-ANA at 3 5 6 8 10 12 13 14 | 52.7
2'F-ANA at 1 4 7 8 10 | 50.3
2'F-ANA at 2 3 4 7 9 13 | 446
2'F-ANA at 1 3 4 8 9 13 15 | 140
2'F-ANA at 3 4 5 6 7 9 10 11 12 15 | 56.1
2'F-ANA at 2 4 5 6 7 8 10 11 12 14 15 | 47.8
2'F-ANA at 2 4 7 8 11 12 14 15 | 161
2'F-ANA at 2 4 5 6 9 10 12 15 | 51
2'F-ANA at 6 10 13 14 | 98.9
2'F-ANA at 1 2 3 6 8 9 13 14 | 78.2
2'F-ANA at 1 4 5 7 9 10 14 15 | 97.8
2'F-ANA at 1 2 4 6 7 8 9 11 12 13 14 15 | 67.2
2'F-ANA at 1 8 9 10 11 | 60.6

Study 5
Target: RING finger protein unkempt homolog, zinc fingers 1-6, GST-SBP tag (UNK, Homo sapiens, UniProt Q9C0B0, residues 30-357)
Chain of UniProt Q9C0B0 (30-357, looked up): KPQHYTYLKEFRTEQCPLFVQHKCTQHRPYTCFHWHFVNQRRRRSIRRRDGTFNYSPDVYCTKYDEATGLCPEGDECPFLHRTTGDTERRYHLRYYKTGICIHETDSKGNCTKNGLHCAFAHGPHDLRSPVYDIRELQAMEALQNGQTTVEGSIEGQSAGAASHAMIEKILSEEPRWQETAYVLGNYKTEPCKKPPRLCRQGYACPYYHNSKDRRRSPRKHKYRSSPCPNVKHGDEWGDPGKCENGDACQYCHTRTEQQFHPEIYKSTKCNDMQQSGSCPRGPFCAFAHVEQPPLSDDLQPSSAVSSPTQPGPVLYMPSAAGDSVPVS
Method: RNA Bind-n-Seq
Form: RNA
Medium: in vitro
Tested at: not given
Notes: RNA with constant flanks, human and mouse sites, ends assumed
Reference: input RNA pool
Reading: higher = stronger binding
Sequence | bound/input enrichment [ratio]
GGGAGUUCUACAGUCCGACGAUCCCGCAGGGGUCUGGCUUAUGUGUGCCACCAGCGAGGAGAGGAGCUCAAAGGCCAUAAUACUCUGCCUUCACCCUGGAGAGACCGUCCCAUGGAGGAGUCACUGCUGCUCUUUGAGGCAAUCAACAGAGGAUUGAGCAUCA | 0.107
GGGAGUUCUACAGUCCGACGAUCCCUGGUGGGCAUGUGGGACGUUUCUGCAUUUGGACUGAAAGUGCUUUCCGGAAGUUAGAUGAAUUGUACGGCACUUGGCGUAAAGCCGCUUCCCUCAAGAGUAACUACAAUCUUCCCAUGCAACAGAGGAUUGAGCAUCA | 0.387
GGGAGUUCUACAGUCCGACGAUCGGAAGUACAAUGAUGGAGAUUGAUGGUGACAAAGGCAAGCAGGGCGGGCCCACCUACUACAUAGACACCAAUGCCCUCCGCGUGCCCAGGGAGAACAUGGAGGCCAUCUCACCACUCAAGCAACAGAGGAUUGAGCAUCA | 0.218
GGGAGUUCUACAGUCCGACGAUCUGCGUCCUUUUUCGUUUUUCGGAUGAUGCCUUCAAUACUACCUUUAUUUCCACCAUAGGAAUAGACUUCAAGAUCAAAACAGUUGAAUUACAAGGAAAGAAGAUCAAGCUACAGAUAUGGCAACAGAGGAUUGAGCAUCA | 0.281
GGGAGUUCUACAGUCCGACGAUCACGUGCUGCCAGCUGAGAGACUACCUGUCCGCCGGAGCAGAAACCUUCCUGCUGCGACUUUAUAGGAAAACUUUUGAGAAGGAUGGCAAAGCUGAAGAAGUGUGGGUAAAUGUUAGAAAGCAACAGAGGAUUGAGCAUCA | 0.714
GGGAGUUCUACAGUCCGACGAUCAUGGCACAACUUCUGGAUCUCUCUGUGGAUGAGUCAGAGGCUUUCCUCUCGAAUCUAGUCGUUAACAAGACCAUCUUUGCUAAAGUAGACAGGUUGGCUGGAGUCAUCAACUUCCAGAGACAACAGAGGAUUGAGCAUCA | 0.226
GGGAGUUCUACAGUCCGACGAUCUCUUGUGGACAUGCCUGCACACACACUGAGCACAUGGCAGCUCUCUCCCCUGAAAAGGAUCCAUGUUCAUACAGAACGGAAAUGUGUUGCCUUCAUUGUCCCUAUCCCCAUCUUCUGUUCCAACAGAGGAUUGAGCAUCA | 0.159
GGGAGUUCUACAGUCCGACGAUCAAAUUUAGAGCAUGUUUAAAGAUUCUCACAGUAGAACUUCGUACUUUAUCUACUGGCUAUGAAAUAGAUGGUGGAAAAUUGCGUUACCAACUAUACCACUGGCUUGAAAAAGAGGUGAUACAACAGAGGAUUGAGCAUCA | 0.517
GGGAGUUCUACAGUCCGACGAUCAUUAAGCAAAGGACCAAGUUGGAGCUUAAAGCCAAGGAUUUACAAGAUGAGCUGGCGGGCAACAGUGAACAGCGGAAACGUUUAUUAAAAGAGAGGCAGAAGCUGCUUGAAAAAAUAGAACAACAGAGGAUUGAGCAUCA | 0.335
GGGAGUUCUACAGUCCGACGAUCGUUGAAAAUUAUUGCCGUCAUUAUUUACAUACUUAAGACAUAUUAGCAAGUUGAUCCAAAAUGGGAGGCCUUAUAGAUGUGCUUGGGGGAAAAUGAAGGGGAGAAAGUAGCCAUACAGGACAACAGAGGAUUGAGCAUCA | 1.42
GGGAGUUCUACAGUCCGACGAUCACUUUUGAUUUCUCAGAAGAGGAGGAUGAUGAUGCUGCUGCUGCUGAUGACAGUAAUGAUUUAGAAGAACUGAAAGUUAAAGCAUCUCCCAUAACAAAUGAUGGGGAAGAUGAAUUUGUUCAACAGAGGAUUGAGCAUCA | 0.655

For quick reference, copied from above (study 3):
Change | normalised enrichment score
S2C | 0.527
D12A | 0.363
R5A | 0.823
K3H | 0.838
K10F | 0.502
F9A | -0.0864
F9P | 0.139
K3N | 0.565
K10H | 0.342
V6H | 0.203
V6E | 0.334
